# Experimental data of several laboratories.
# Lines come from different studies, so protocols differ. ± gives the spread as reported.
# Chain of UniProt Q14204 (whole entry, looked up): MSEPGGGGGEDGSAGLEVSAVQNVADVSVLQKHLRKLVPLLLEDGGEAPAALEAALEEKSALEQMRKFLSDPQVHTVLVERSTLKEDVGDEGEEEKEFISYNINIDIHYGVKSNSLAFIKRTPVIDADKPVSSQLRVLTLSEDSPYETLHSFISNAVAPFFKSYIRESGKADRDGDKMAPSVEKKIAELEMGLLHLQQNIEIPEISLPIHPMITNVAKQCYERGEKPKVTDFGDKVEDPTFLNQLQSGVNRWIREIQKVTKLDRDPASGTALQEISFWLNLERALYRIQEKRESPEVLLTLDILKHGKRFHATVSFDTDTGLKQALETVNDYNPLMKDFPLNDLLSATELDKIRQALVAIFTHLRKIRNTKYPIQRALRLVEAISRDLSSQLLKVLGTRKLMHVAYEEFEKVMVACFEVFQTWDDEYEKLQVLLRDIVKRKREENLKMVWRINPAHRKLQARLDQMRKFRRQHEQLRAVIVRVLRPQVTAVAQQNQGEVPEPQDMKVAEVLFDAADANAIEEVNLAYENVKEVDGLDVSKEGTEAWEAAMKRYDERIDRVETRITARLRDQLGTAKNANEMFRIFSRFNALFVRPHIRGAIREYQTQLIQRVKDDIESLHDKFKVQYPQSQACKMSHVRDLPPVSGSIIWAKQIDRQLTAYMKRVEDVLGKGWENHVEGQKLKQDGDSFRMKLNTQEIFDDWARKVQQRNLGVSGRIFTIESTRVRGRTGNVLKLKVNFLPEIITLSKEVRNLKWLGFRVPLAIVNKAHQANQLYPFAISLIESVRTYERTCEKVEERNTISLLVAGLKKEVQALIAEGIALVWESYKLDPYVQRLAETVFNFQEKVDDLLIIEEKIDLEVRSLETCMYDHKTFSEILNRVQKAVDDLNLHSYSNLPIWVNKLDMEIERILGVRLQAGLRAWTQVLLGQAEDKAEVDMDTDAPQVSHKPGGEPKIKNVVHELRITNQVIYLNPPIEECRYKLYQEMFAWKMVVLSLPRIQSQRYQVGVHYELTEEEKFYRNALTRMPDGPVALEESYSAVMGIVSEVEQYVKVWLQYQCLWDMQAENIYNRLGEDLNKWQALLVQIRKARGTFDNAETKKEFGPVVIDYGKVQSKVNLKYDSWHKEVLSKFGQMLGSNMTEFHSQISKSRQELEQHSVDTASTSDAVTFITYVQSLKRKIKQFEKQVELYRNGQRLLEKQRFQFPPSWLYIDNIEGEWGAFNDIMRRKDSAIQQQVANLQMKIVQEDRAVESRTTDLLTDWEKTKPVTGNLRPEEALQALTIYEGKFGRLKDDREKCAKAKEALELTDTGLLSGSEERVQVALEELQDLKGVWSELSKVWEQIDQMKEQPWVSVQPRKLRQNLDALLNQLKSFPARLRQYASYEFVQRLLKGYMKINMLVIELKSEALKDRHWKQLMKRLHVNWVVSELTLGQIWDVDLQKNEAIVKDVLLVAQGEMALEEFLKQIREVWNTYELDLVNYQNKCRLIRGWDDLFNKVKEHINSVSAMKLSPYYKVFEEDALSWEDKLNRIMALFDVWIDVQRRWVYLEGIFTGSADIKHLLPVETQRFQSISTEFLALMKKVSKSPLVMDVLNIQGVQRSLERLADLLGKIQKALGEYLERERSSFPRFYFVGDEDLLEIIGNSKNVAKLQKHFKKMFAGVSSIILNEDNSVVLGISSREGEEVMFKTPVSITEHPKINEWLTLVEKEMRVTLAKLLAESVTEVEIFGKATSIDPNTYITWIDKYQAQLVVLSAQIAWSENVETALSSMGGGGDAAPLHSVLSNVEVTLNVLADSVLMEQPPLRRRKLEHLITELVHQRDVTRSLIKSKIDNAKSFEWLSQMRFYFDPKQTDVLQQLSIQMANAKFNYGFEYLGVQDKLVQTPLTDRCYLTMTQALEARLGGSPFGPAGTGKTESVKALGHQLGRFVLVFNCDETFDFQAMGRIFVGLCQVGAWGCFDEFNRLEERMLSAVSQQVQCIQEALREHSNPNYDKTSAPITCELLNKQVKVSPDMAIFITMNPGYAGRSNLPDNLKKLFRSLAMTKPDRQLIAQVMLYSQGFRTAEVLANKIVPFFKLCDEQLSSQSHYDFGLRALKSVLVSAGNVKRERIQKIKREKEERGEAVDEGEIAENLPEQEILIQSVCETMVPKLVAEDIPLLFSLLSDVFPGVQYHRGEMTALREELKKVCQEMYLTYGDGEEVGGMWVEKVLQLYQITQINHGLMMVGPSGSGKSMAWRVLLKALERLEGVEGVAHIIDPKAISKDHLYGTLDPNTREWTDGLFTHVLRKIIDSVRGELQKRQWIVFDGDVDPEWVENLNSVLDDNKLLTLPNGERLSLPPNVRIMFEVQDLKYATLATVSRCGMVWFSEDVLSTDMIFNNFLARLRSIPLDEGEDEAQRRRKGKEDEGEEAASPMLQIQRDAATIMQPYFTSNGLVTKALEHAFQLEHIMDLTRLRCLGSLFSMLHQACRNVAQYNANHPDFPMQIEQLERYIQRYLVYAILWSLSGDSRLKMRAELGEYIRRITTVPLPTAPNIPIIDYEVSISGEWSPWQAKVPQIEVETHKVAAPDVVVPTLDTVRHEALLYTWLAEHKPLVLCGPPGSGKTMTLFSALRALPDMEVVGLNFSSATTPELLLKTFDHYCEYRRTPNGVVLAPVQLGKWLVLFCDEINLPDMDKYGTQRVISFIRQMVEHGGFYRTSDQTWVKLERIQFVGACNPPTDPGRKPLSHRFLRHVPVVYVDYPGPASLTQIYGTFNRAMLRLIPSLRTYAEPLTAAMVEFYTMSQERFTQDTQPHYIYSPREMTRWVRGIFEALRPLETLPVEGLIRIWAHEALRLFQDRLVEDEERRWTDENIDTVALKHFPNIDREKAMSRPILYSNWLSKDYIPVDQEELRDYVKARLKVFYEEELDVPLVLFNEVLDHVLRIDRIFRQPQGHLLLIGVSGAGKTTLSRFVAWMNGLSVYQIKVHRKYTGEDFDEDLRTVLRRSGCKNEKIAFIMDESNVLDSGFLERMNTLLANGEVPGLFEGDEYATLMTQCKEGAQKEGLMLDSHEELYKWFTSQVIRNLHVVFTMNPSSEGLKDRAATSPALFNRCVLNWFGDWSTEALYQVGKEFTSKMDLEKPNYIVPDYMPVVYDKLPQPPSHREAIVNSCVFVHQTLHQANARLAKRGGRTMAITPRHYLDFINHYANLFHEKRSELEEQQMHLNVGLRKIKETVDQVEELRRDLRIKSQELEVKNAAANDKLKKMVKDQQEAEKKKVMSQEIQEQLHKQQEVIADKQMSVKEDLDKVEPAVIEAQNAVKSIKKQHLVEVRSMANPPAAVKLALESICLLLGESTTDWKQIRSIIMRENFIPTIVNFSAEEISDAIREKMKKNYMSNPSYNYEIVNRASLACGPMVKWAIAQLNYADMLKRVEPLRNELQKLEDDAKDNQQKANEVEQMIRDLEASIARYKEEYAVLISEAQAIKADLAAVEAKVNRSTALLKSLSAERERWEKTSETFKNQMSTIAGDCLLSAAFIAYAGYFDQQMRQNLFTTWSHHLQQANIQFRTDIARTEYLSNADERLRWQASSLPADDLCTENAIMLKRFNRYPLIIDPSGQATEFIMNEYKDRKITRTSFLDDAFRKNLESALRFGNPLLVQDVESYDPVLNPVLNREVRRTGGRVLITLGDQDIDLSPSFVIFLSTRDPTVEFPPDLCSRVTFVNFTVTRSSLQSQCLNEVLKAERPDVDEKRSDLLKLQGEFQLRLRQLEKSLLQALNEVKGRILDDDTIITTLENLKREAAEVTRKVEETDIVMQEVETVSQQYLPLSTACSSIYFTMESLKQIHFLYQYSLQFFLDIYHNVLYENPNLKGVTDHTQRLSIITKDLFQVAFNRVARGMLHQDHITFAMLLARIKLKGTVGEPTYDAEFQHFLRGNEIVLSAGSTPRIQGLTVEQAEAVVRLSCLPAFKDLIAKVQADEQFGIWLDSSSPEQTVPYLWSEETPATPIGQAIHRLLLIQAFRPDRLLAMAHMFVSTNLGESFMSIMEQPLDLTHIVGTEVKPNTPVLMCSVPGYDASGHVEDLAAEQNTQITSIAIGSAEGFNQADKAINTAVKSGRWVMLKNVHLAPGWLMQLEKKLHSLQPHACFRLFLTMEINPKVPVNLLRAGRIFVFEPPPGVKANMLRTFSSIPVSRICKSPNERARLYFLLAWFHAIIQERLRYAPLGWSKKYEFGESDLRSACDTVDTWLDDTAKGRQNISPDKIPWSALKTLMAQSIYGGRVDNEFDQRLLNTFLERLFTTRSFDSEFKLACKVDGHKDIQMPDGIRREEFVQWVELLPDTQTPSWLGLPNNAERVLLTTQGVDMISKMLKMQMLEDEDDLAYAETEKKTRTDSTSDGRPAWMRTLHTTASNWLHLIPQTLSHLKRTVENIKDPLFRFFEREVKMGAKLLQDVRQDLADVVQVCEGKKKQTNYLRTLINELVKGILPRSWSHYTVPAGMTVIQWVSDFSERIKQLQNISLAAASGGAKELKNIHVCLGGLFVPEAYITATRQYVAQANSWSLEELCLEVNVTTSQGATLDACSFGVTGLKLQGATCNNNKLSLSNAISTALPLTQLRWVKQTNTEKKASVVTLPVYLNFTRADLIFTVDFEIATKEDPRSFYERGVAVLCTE
Compound,target or system,test,system,setting,scale,endpoint,result
C=CC(=O)N1CC[C@H](n2nc(C#Cc3cc(OC)cc(OC)c3)c3c(N)ncnc32)C1,,,human patients,"oral, dose not given, QD regimen, adverse drug reaction, with: ferric citrate hydrate",,"any adverse drug reaction, any grade",100%
C[C@H]1CN(c2n[nH]c3nc(N[C@H]4CC[C@H](NS(=O)(=O)CCC(F)(F)F)CC4)ncc23)CCO1,"DYNC1H1 (Homo sapiens, UniProt Q14204)","inhibitor, Kinobeads competition profiling",,0.032 µM,reference: vehicle,relative abundance,1.01
c1csc(CNc2cc[nH]n2)c1,,micronucleus,"CD-1 mouse Hsd:ICR(CD-1), female, bone marrow","oral, 500 mg/kg/day, 3 days",,PCE to total erythrocyte ratio,0.465
COc1ncccc1-c1cnn2ccc(N3CCN(C(=O)OC(C)C)CC3)nc12,,,"rat, thermal hyperalgesia model, plasma","oral, 1 mg/kg, 180 min",,free drug concentration,1.1 nM
COc1cc2c(Oc3ccc4[nH]c(C)cc4c3F)ccnc2cc1OCC1(N)CC1,,,paediatric refractory sarcoma patients,8 mg,,AST elevation incidence,25%
Cc1ccccc1NC(=O)Nc1ccc(CC(=O)N[C@@H](CCCCNC(=O)/C=C/c2cccnc2)C(=O)N[C@@H](CCCC(=O)O)C(=O)NC2(C(=O)NCCOCCOCCOCCOCC(=O)N[C@@H](CCCCNC(=S)Nc3ccc(CCCN(CCN4CCN(CP(=O)(O)O)CCN(CP(=O)(O)O)CC4)CC(=O)O)cc3)C(N)=O)CCCCC2)cc1 [gallium-68 labelled],,,"C57BL/6 mice with B16-F10 tumour, tumour, spleen, thymus, bone",with: unlabelled LLP2A-PEG4 100 µg co-injected,,uptake,decreased
CN1CC[C@@H](c2c(O)cc(O)c3c(=O)cc(-c4ccc(C(F)(F)F)cc4Cl)oc23)[C@@H]1CO,,item: Pneumonia,relapsed B-cell malignancies,"oral, 150 mg, grade 3-4, intermittent dosing",,patients with adverse event,0%
O=c1ccc2ccccc2o1,HepG2,item: cell count,,"concentration not given, 1 h, ATP, GSH, MMP, ROS panel",,probability of response,0.01%
O=c1cc(-c2ccc(O)c(O)c2)oc2cc(O)cc(O)c12,,,"male Sprague-Dawley rats, lean, urine","oral, 100 mg/kg of neohesperidin, 48 h",,cumulative urinary excretion,480 ± 67.5 ng
c1ccc2[nH]cnc2c1,,,,pH 7.4,,logD (chromatographic),0.61
CC(C)[C@@H](CS(=O)(=O)C(C)C)N1C(=O)[C@@](C)(CC(=O)O)C[C@H](c2cccc(Cl)c2)[C@H]1c1ccc(Cl)cc1,,MALDI-MSI,"B6.129S7-Rag1tm1Mom/J orthotopic PDX mice, tumour","25 mg/kg two doses, 2 h after second dose",,median concentration,630 nmol/L
Cc1cc(C(=O)NC(C)(C)COc2cccc3c2C(N)=NS(=O)(=O)N3)cc(C)n1,Salmonella typhimurium,"Ames test, confirmatory",TA1535,5000 µg/plate,reference: solvent control,revertant ratio,1
COc1ccc(C[C@@H]2NC(=O)[C@H]([C@@H](C)O)NC(=O)[C@@H]3[C@@H]4CCN3C(=O)[C@@H]3Cc5cn(c6ccc(F)cc56)CCCCCCN(Cc5ccc(cc5)CCNC(=O)[C@]5(C)CCCN5C2=O)C(=O)CCC(=O)N[C@@H](C)C(=O)N[C@H](CNC(=O)CCCCC[N+](C)(C)C)C(=O)N[C@@H](Cc2cccc(c2)CNC(=O)CO4)C(=O)N3)cc1,,item: respiratory tract irritation,human,dose not given,,participants with adverse event,2%
C[C@@H]1NC(=O)[C@H](CCCCNC(=O)CO/N=C/C(=O)NCCCC[C@@H]2NC(=O)[C@@H](Cc3ccccc3)NC(=O)[C@H](CC(=O)O)NC(=O)CNC(=O)[C@H](CCCNC(=N)N)NC2=O)NC(=O)CNC(=O)[C@@H]2CCCN2C(=O)[C@H](CCCCNC(=O)CO/N=C/C(=O)NCCCC[C@@H]2NC(=O)[C@@H](Cc3ccccc3)NC(=O)[C@H](CC(=O)O)NC(=O)CNC(=O)[C@H](CCCNC(=N)N)NC2=O)NC(=O)[C@H](CCCCNC(=O)CCNC(=O)CCNC(=O)CCNC(=O)[C@H](CCCCN)NC(=O)[C@H](Cc2ccccc2)NC(=O)CNC(=O)CN2CCCNCCNCCCNCC2)NC(=O)[C@H](CCCCNC(=O)CO/N=C/C(=O)NCCCC[C@@H]2NC(=O)[C@@H](Cc3ccccc3)NC(=O)[C@H](CC(=O)O)NC(=O)CNC(=O)[C@H](CCCNC(=N)N)NC2=O)NC(=O)CNC(=O)[C@@H]2CCCN2C(=O)[C@H](CCCCNC(=O)CO/N=C/C(=O)NCCCC[C@@H]2NC(=O)[C@@H](Cc3ccccc3)NC(=O)[C@H](CC(=O)O)NC(=O)CNC(=O)[C@H](CCCNC(=N)N)NC2=O)NC1=O [copper-64 labelled],,,"normal mice, intestine","intravenous, 0.74 MBq, 3 h post-injection",,tissue uptake,2.44 ± 0.29 %ID/g
CCc1ccc(CC/C=C/c2ccc3c(c2)C(=O)CC3)cc1,,,"Sprague-Dawley rat, female","oral, 30 mg/kg/day, 14 days",,Globulin,17.6 g/L
O.O.O.O.O.O.[Cl-].[Cl-].[Co+2],,,"rat male, urine","oral, 10 mg/kg single, day 2",,cobalt in urine,834 µg/L
COc1c(CCC[P+](c2ccccc2)(c2ccccc2)c2ccccc2)cc2c(c1OC)OCO2.[I-],HCC 2998,SRB,,,,TGI,-4.84 log M
COc1ccc(CCC2CCCC(CCc3ccc(OC)cc3)N2C[C@@H](O)CO)cc1.Cl (stereo in doubt),,,rabbit Purkinje fibres,"0.3 µM, cycle length 0.5 s",reference: baseline,APD90 change,27.9 ± 3.1%
CC[C@H](C)[C@H](NC(=O)[C@H](Cc1ccccc1)NC(=O)[C@H](CCC(=O)O)NC(=O)[C@H](CCCNC(=N)N)NC(=O)[C@H](C)NC(=O)[C@H](C)NC(=O)[C@H](CCC(N)=O)NC(=O)[C@H](CCC(=O)O)NC(=O)[C@H](CCC(=O)O)NC(=O)[C@H](CC(C)C)NC(=O)[C@H](Cc1ccc(O)cc1)NC(=O)[C@H](CO)NC(=O)[C@H](CO)NC(=O)[C@@H](NC(=O)[C@H](CC(=O)O)NC(=O)[C@H](CO)NC(=O)[C@@H](NC(=O)[C@H](Cc1ccccc1)NC(=O)[C@@H](NC(=O)CNC(=O)[C@H](CCC(=O)O)NC(=O)[C@H](C)NC(=O)CCc1c[nH]cn1)[C@@H](C)O)[C@@H](C)O)C(C)C)C(=O)N[C@@H](C)C(=O)N[C@@H](Cc1c[nH]c2ccccc12)C(=O)N[C@@H](CC(C)C)C(=O)N[C@H](C(=O)N[C@@H](CCCNC(=N)N)C(=O)NCC(=O)N[C@@H](CCCNC(=N)N)C(=O)N[C@@H](CCCCNC(=O)COCCOCCNC(=O)COCCOCCNC(=O)CC[C@H](NC(=O)CCCCCCCCCCCCCCCCC(=O)O)C(=O)O)C(=O)NCC(=O)NCC(=O)N[C@@H](CO)C(=O)N[C@@H](CCCCNc1c(NCCCCCN(O)C(=O)CCC(=O)NCCCCCN(O)C(=O)CCC(=O)NCCCCCN(O)C(C)=O)c(=O)c1=O)C(=O)O)C(C)C [zirconium-89 labelled],,,"rat, pancreas","iv, 3 nmol/kg, 24 h, ex vivo",,tissue uptake,0.2 %ID/g

# Excerpt of the above:
Compound,target or system,test,system,setting,scale,endpoint,result
COc1ncccc1-c1cnn2ccc(N3CCN(C(=O)OC(C)C)CC3)nc12,,,"rat, thermal hyperalgesia model, plasma","oral, 1 mg/kg, 180 min",,free drug concentration,1.1 nM
